Assay results pooled from the literature.
Each numbered part is a random draw from the data of one study; scales do not carry over between parts.
Sequence of UniProt Q9C5X0 (whole entry, looked up): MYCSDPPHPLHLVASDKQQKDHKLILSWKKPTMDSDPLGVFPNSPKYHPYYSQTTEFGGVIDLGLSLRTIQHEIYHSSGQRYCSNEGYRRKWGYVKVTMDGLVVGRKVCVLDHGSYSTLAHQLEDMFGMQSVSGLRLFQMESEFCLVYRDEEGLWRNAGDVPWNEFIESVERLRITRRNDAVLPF
Sequence of UniProt P52333 (whole entry, looked up): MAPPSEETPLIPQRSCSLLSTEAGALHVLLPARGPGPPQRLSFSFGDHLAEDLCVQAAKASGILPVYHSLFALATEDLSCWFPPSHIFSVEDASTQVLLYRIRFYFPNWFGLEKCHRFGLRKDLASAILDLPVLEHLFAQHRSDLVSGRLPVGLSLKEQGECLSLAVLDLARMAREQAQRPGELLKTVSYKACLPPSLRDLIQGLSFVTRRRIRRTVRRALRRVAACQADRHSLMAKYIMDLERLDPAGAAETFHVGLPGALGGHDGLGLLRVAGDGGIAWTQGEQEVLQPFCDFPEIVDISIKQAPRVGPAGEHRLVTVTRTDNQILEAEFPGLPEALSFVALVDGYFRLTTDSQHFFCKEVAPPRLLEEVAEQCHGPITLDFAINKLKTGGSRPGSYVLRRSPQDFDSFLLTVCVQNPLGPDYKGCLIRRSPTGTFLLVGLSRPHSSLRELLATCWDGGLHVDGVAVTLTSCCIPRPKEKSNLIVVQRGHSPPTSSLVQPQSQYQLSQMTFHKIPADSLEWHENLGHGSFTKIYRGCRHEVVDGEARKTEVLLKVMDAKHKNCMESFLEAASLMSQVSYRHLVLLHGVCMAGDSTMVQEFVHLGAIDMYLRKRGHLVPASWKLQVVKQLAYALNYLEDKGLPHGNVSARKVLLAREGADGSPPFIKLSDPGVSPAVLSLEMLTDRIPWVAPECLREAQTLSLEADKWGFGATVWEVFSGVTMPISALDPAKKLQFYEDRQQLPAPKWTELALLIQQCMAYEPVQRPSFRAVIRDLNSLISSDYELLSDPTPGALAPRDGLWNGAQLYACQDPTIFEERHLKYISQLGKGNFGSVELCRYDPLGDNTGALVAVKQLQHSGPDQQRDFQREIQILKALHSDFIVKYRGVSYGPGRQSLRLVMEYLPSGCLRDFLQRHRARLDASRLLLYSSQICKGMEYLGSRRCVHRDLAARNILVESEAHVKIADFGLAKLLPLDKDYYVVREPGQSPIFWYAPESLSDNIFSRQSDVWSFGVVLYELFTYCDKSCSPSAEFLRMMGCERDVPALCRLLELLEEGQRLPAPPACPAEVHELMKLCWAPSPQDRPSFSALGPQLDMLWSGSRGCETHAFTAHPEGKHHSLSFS
Sequence of UniProt P22607 (whole entry, looked up): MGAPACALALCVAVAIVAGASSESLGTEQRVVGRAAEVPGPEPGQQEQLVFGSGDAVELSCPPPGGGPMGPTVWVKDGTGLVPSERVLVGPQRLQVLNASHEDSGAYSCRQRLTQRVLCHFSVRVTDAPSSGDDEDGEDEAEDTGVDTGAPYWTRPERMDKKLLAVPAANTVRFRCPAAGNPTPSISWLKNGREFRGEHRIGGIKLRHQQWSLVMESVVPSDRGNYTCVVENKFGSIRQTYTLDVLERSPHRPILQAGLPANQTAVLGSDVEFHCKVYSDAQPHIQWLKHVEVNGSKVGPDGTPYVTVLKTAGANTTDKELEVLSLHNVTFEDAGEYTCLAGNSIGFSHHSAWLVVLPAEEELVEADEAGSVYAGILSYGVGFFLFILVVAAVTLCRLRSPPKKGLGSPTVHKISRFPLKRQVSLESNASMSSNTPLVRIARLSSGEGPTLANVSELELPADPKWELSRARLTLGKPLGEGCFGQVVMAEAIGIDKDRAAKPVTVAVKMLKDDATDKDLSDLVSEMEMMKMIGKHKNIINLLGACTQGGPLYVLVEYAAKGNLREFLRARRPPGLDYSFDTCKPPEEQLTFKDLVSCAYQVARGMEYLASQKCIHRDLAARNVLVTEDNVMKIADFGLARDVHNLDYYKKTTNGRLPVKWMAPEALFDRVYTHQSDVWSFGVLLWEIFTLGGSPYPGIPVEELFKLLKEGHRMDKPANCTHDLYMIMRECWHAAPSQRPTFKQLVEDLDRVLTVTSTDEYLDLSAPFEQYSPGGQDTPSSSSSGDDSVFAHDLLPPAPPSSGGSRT
Sequence of UniProt P42336 (whole entry, unmodified, looked up): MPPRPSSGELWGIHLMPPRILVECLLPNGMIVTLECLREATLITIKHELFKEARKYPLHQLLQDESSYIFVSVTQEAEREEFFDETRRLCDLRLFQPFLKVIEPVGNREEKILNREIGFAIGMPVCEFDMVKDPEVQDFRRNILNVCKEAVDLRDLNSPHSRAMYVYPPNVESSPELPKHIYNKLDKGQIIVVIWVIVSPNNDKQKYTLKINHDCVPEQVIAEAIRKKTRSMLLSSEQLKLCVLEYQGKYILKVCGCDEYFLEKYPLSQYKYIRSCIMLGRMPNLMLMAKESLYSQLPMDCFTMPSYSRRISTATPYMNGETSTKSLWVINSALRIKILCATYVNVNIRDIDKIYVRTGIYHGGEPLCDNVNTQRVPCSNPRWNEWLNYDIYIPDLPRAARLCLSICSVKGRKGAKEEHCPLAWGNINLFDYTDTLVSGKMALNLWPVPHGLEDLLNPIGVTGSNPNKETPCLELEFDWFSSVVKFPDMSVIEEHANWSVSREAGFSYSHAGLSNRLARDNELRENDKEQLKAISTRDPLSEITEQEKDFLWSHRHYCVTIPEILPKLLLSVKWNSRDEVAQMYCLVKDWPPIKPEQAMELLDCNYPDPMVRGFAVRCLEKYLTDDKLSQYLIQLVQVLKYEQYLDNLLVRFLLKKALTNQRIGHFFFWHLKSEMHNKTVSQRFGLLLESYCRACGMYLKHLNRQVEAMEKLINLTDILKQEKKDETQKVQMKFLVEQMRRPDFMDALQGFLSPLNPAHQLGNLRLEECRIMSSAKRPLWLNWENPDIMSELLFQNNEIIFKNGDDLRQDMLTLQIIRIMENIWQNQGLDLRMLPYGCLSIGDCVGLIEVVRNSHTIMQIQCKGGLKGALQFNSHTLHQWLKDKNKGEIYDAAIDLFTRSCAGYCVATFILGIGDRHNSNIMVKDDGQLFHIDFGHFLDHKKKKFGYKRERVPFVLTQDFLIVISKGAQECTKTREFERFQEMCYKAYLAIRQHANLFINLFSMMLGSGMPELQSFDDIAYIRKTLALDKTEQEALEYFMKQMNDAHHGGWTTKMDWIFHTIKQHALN
Sequence of UniProt Q8IYT8 (whole entry, looked up): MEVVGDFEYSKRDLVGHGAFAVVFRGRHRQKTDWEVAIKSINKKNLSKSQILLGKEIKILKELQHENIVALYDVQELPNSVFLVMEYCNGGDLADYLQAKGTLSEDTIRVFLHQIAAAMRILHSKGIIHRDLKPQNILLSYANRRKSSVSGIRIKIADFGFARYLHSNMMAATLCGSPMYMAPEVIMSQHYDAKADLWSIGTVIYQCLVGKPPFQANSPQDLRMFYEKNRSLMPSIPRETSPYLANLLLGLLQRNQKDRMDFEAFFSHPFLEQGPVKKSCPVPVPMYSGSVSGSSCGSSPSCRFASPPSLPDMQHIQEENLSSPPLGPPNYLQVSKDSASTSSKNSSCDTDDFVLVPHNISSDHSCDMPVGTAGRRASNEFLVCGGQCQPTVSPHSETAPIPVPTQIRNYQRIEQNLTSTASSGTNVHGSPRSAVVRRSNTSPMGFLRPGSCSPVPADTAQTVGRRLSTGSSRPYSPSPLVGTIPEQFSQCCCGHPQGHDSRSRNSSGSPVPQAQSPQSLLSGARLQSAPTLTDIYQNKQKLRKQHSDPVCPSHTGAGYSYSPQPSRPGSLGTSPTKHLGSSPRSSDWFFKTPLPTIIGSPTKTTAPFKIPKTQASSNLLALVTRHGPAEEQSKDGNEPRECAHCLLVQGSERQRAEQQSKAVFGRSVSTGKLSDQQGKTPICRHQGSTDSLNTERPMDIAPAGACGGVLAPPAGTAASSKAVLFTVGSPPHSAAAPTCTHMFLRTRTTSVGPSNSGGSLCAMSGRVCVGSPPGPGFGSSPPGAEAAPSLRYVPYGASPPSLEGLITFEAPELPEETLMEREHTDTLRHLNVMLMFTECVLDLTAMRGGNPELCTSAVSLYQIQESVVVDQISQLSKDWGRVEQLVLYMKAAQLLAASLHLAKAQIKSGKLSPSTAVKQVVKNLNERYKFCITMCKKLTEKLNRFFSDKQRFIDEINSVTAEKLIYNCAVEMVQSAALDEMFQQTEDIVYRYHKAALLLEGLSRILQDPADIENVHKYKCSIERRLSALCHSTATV
Sequence of UniProt P78368 (whole entry, looked up): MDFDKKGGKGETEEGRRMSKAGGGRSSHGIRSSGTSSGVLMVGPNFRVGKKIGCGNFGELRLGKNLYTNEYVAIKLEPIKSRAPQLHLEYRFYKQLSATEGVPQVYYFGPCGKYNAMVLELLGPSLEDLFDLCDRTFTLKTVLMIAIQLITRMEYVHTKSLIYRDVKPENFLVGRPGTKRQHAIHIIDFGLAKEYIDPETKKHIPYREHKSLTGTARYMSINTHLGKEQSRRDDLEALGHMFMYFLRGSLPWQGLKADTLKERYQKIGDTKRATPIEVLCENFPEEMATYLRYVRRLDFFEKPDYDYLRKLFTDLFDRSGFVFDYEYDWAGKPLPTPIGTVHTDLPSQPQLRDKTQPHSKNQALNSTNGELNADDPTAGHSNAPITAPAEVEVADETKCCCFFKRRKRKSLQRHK
Sequence of UniProt Q8RYC6 (whole entry, looked up): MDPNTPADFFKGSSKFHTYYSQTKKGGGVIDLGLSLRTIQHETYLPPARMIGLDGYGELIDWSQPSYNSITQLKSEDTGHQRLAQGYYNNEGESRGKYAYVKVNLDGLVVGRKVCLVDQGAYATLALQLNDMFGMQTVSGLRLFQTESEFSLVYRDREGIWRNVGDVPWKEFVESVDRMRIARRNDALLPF

Block 1
SMILES: NC(=O)c1cccc(-c2cc(Nc3ccc(OC(F)(F)F)cc3)ncn2)c1
Effect on: enzyme activity
Action: inhibitor
Tested at: 0.5 µM
Reference: control
Endpoint: remaining activity
target = JAK3 (Homo sapiens, UniProt P52333); result = 101%
target = RPS6KA2 (Homo sapiens, UniProt Q15349); result = 96.2%
target = FRK (Homo sapiens, UniProt P42685); result = 95.5%
target = NEK1 (Homo sapiens, UniProt Q96PY6); result = 89.6%
target = TEK (Homo sapiens, UniProt Q02763); result = 94.2%
target = MAP2K2 (Homo sapiens, UniProt P36507); result = 92.5%
target = CSNK1G3 (Homo sapiens, UniProt Q9Y6M4); result = 93.4%
target = CSNK1G2 (Homo sapiens, UniProt P78368); result = 89.5%
target = FGFR3 (Homo sapiens, UniProt P22607); result = 93.2%
target = FGFR1 (Homo sapiens, UniProt P11362); result = 96.9%
target = GSK3B (Homo sapiens, UniProt P49841); result = 110%
target = LCK (Homo sapiens, UniProt P06239); result = 93.3%
target = ULK2 (Homo sapiens, UniProt Q8IYT8); result = 103%

Block 2
Structure (SMILES): CC(C)(O)c1cncc(-c2nc3ccc(F)cc3n2C2CC2)c1
Effect on: cell-free assay
Method: competition with immobilised ligand
Tested at: 1 µM
Endpoint: remaining binding
target = BRAF (Homo sapiens, UniProt P15056); result = 100%
target = PIM1 (Homo sapiens, UniProt P11309); result = 92%
target = PIK3CA (Homo sapiens, UniProt P42336, E545K); result = 95%
target = IGF1R (Homo sapiens, UniProt P08069); result = 100%

Block 3
Target: RNA binding protein fox-1 homolog 2, RRM domain, GST-SBP tag (RBFOX2, Homo sapiens, UniProt O43251-10, residues 100-194)
Method: RNA Bind-n-Seq
Molecule type: RNA
Sample: in vitro
Tested at: 365 nM
Notes: natural RNA segment, single round, ends assumed
Reference: no-protein control
Reading: higher = stronger binding
Endpoint: RBNS enrichment (R)
Shared flanks, not repeated: GGGAGUUCUACAGUCCGACGAUC … UGGAAUUCUCGGGUGCCAA
Strand = UAUUCAUUUCAGUAGAAGAUAAUCUUAUCUAAUUUUUGAGACCAGAAUAAGCCUUUUAAGGUAAACCUCAAAAUUAUCAUUUUAUGGUAAUACUGACCAUUUUAGUCCCC; result = 0.381
Strand = UUCGAAAGCUAAUAUCCCAGAAGAGCGACAGACAGAGGAGGUGACUACAUGUAAGACAUAUGUUACUGUGUGGAGGACAUAAAACUUUUCAGUUCUGGGGUGGCCAUUGC; result = 0.385
Strand = GCGGUGUCACCAUGAGCACCUCCAGCUGUACUAGUGCCAUUGGAAUAAUAAAUUUGAUAAGGUGGUGCUCUGUUCUGCAUUUUUCACGGUGUCUUCGCAGGGGAGCGGGG; result = 0.76
Strand = CACACAGUGAUUGACCUGGUCCCACUCCAUUGGGGAAGAAAAGAUACAGAUGUUUGGUUUGGCCAGCUGACAAGGAAGCAGUCCAUAGAAGAGAUGGGCUCAGCCUGAAC; result = 0.517
Strand = UCAUGUGACCCCAGCAACUUUGGUGAUACUGAGAGGCCAGCAGGCAGUAGAGUGGACACCUCGGCCGUGGCCACUUUAGAGGGGGAAAAGUUUAAGUUUUAAACUAAAAG; result = 0.512
Strand = GGGUGAUGCCAGGUUGUCCCGUCACUGGGGUCCCAUCUGUAAAUUCUUUGCGCCCUUCCCGGCUGCUGCCUGGGGCCCUUUCCUGCUCUCCCGUCCGCUGUGGGUGGUCC; result = 0.442
Strand = AAAUAUGCUAGGUGGUCUUCAAGACCUUUUUGAACCUACAGAUUCUAAACCUUAGAGGAAGCCAGAAUAUGUGAUCAUACCAGGUGAGGAAAGUUAGGAGAUAUUCAUCU; result = 0.395
Strand = CCACACCAACCCUGUGCUCUCUGGCCCCCAGCUGGCCACACUUCUCCAGGAGGGACCCUUGGACUUCUUUGUGUGUCCAGUUUGGCCUCCUGCCCAAACUGUCCAUUCCA; result = 0.369

Block 4
Sequence: B1 (IAA8)
Method: two-hybrid
Reference: out of 4 tests
Reading: higher = firmer interaction
Endpoint: positive tests
B1: IAA8 (Arabidopsis thaliana, UniProt Q38826); chain MSYRLLSVDKDELVTSPCLKERNYLGLSDCSSVDSSTIPNVVGKSNLNFKATELRLGLPESQSPERETDFGLLSPRTPDEKLLFPLLPSKDNGSATTGHKNVVSGNKRGFADTWDEFSGVKGSVRPGGGINMMLSPKVKDVSKSIQEERSHAKGGLNNAPAAKAQVVGWPPIRSYRKNTMASSTSKNTDEVDGKPGLGVLFVKVSMDGAPYLRKVDLRTYTSYQQLSSALEKMFSCFTLGQCGLHGAQGRERMSEIKLKDLLHGSEFVLTYEDKDGDWMLVGDVPWEIFTETCQKLKIMKGSDSIGLAPGAVEKSKNKERV
partner = ARF8 699-811 (Arabidopsis thaliana, UniProt Q9FGV1); result = 3
partner = IAA34 (Arabidopsis thaliana, UniProt Q9C5X0); result = 4
partner = ARF4 660-788 (Arabidopsis thaliana, UniProt Q9ZTX9); result = 0
partner = IAA32 (Arabidopsis thaliana, UniProt Q8RYC6); result = 0
partner = IAA17 (Arabidopsis thaliana, UniProt P93830); result = 4

Excerpt of the above (block 1):
target = CSNK1G2 (Homo sapiens, UniProt P78368); result = 89.5%
target = FGFR3 (Homo sapiens, UniProt P22607); result = 93.2%
target = FGFR1 (Homo sapiens, UniProt P11362); result = 96.9%
target = GSK3B (Homo sapiens, UniProt P49841); result = 110%
target = LCK (Homo sapiens, UniProt P06239); result = 93.3%
